Experimental data pooled from the literature.
Each numbered part is a random draw from the data of one study; scales do not carry over between parts. Positions count from the first letter of the parent shown.
Sequence of UniProt Q12851 (whole entry, looked up): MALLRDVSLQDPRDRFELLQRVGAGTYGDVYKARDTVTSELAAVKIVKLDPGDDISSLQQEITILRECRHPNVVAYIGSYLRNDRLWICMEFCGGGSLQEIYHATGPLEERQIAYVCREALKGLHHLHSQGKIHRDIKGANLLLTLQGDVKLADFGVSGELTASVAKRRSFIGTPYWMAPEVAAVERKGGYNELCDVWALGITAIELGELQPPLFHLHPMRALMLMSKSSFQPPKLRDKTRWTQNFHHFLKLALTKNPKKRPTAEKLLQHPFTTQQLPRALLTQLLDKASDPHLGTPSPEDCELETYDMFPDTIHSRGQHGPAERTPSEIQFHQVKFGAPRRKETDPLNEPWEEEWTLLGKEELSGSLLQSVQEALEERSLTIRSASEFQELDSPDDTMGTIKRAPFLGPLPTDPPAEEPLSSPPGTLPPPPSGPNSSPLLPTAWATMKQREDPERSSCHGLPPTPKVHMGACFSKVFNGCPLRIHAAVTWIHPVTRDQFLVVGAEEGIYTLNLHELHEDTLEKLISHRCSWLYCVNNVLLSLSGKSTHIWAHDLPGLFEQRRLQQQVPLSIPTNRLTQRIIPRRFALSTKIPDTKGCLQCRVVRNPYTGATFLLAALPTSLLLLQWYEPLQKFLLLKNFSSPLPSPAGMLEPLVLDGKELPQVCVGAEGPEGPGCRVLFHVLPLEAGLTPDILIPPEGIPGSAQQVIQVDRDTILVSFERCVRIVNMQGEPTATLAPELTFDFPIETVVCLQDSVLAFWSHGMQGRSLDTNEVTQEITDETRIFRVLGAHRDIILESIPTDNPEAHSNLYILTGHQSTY
Sequence of UniProt Q86YV6 (whole entry, looked up): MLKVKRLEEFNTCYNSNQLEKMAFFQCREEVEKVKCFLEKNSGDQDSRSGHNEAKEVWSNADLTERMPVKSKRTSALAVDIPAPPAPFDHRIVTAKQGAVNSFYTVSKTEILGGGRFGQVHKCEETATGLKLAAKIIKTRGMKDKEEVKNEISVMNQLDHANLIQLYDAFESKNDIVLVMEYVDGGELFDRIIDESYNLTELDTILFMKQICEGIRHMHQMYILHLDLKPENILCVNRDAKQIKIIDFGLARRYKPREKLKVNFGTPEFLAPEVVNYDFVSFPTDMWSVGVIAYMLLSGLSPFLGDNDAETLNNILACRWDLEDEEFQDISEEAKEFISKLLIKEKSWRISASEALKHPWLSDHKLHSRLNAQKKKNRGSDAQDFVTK
Sequence of UniProt Q9NRP7 (whole entry, looked up): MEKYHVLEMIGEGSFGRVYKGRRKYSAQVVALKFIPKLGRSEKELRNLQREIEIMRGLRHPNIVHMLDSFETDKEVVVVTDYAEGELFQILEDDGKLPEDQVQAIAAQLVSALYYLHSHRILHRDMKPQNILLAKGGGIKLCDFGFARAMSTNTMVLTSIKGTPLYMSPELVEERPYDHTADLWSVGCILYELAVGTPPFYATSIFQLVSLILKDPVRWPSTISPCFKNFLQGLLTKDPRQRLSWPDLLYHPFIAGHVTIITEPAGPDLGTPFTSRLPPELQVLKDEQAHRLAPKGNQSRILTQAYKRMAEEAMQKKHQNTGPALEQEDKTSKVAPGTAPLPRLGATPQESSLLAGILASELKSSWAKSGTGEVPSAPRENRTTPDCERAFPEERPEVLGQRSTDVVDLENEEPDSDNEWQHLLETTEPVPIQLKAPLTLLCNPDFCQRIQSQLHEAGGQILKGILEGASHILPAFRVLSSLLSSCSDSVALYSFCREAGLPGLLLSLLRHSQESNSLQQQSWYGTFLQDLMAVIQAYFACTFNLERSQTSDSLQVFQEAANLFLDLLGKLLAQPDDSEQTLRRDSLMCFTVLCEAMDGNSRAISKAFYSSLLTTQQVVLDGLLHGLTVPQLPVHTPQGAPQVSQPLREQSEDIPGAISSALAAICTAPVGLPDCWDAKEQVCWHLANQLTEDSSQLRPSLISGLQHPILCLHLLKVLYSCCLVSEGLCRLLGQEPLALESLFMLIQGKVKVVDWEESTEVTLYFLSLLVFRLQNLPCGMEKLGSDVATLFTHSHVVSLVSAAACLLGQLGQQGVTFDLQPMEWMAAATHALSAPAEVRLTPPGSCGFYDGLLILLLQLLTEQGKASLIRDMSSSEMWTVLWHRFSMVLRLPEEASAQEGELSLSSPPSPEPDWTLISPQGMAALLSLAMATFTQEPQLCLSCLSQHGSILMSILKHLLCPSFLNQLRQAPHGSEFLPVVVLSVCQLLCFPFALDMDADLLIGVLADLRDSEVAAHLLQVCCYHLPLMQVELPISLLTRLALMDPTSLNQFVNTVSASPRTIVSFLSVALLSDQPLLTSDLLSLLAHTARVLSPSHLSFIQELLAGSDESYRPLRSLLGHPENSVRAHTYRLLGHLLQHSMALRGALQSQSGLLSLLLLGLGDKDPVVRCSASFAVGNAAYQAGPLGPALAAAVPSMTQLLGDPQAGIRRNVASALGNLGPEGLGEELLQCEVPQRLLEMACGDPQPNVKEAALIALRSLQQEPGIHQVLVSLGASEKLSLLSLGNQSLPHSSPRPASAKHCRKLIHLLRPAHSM

Series 1
Structure (SMILES): CS(=O)(=O)NCC[C@H](NC(=O)c1cncc2c1cnn2-c1ccc(F)cc1)c1ccnc(S(C)(=O)=O)c1
Read-out: cell-free assay
Method: competition with immobilised ligand
Concentration: 1 µM
Endpoint: remaining binding
Myosin light chain kinase family member 4 (MYLK4, Homo sapiens, UniProt Q86YV6): 100%
Mitogen-activated protein kinase kinase kinase kinase 2 (MAP4K2, Homo sapiens, UniProt Q12851): 91%
Serine/threonine-protein kinase 36 (STK36, Homo sapiens, UniProt Q9NRP7): 100%

Series 2
Target: Prothrombin, mature alpha-thrombin (F2, Homo sapiens, UniProt P00734)
Method: aptamer microarray, sandwich
Form: DNA with 2'F-ANA
Sample: in vitro
Concentration: 200 nM
Notes: whole 15-mer aptamer, many near background
Together with: Cy3 exosite-II aptamer, 400 nM
Direction: higher = stronger binding
Endpoint: mean fluorescence intensity
Strand: GGTTGGTGTGGTTGG
2'F-ANA at 4 5 6 8 9 10 12: 51.2 a.u.
2'F-ANA at 2 3 4 5 7 11 13 14 15: 50.3 a.u.
2'F-ANA at 2 8 12 13: 667 a.u.
2'F-ANA at 2 6 8 9 12 13: 496 a.u.
2'F-ANA at 1 2 3 5 6 7 8 9 12 14 15: 49.9 a.u.
2'F-ANA at 1 2 6 11: 121 a.u.
2'F-ANA at 1 4 5 6 8 9 10 11 15: 51.7 a.u.
2'F-ANA at 1 5 6 8 11 13 14: 49.5 a.u.

Series 3
Target: Dual specificity protein kinase TTK (TTK, Homo sapiens, UniProt P33981)
Sequence of UniProt P33981 (whole entry, looked up): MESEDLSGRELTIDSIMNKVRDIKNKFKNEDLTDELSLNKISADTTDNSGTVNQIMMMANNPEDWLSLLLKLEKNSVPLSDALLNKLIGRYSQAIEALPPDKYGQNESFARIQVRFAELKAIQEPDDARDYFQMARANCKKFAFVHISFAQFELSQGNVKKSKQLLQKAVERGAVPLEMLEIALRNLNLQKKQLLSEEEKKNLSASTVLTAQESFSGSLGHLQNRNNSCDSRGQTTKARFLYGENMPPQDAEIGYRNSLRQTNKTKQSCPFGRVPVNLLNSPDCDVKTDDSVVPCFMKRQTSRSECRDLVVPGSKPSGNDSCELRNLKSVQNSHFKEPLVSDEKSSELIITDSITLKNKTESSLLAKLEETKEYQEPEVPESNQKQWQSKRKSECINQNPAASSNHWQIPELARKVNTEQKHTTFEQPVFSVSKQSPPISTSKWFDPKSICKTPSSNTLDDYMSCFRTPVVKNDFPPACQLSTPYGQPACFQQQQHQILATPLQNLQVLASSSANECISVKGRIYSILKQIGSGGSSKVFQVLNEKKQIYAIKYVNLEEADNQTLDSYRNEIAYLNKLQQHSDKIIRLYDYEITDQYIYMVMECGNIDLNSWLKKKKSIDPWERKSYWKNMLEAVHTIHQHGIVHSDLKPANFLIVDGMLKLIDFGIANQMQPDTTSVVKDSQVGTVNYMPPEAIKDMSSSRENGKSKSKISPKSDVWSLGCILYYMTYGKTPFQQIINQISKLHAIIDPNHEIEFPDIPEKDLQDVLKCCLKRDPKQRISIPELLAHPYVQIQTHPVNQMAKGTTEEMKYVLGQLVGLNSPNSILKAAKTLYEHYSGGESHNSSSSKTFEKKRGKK
Read-out: enzyme activity
Mode: inhibitor
Concentration: 0.5 µM
Relative to: control
Endpoint: remaining activity
CO[C@H]1C[C@@H]2CC[C@@H](C)[C@@](O)(O2)C(=O)C(=O)N2CCCC[C@H]2C(=O)O[C@H]([C@H](C)C[C@@H]2CC[C@@H](O)[C@H](OC)C2)CC(=O)[C@H](C)/C=C(\C)[C@@H](O)[C@@H](OC)C(=O)[C@H](C)C[C@H](C)/C=C/C=C/C=C/1C: 117%
Nc1ncnc2n[nH]c(Nc3ccc(F)cc3)c12: 96.1%
Cc1ccc(Nc2nccc(N(C)c3ccc4c(C)n(C)nc4c3)n2)cc1S(N)(=O)=O: 73.4%
O=C(Nc1cccc(Nc2cc(Nc3cccc(C(F)(F)F)c3)ncn2)c1)C1CC1: 98.7%
NCCNc1ncc(C(N)=O)c(Nc2cccc(C(F)(F)F)c2)n1: 112%
Cc1cccc(-c2[nH]c(C(C)(C)C)nc2-c2ccc3c(c2)OCO3)n1: 89%
COc1cc2ncnc(Nc3ccc(F)c(Cl)c3)c2cc1OCCCN1CCOCC1: 96.3%
OCC(O)CCON=C1C(c2c(O)[nH]c3ccccc23)=Nc2ccccc21 (stereo not drawn): 46.1%
O=S(=O)(c1cccc2cnccc12)N1CCCNCC1: 99.1%
Cn1sc(=O)n(Cc2ccccc2)c1=O: 101%
N#CC(C#N)=C(N)/C(C#N)=C/c1ccc(O)cc1: 94.4%
Cn1c2ccccc2c2c3c(c4c5ccccc5n(CCC#N)c4c21)CNC3=O: 69%
COc1ccc(OC)c2c(=S)c3ccccc3[nH]c12: 99.1%
COc1cc2ncnc(Nc3ccc(Oc4ccccc4)cc3)c2cc1OC: 90%

Series 4
Target: CCNE1, cyclin fold, Cln2 fusion (human)
Method: yeast growth competition, sequencing
Sample: yeast
Notes: strong parent motif
Relative to: not given
Direction: higher = stronger binding
Endpoint: normalised enrichment score
Parent: INSM1 docking peptide (human); PKAIRKLHFEDEV; partner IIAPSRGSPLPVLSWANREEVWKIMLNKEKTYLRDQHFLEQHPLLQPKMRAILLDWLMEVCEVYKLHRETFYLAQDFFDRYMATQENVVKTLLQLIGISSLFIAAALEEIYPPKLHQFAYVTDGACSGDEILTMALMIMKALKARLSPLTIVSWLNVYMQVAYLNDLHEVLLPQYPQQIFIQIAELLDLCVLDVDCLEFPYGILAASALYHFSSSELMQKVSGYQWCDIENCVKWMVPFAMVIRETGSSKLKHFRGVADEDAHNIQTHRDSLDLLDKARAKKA
H8G: 1.61
K6E: 1.6
H8W: 4.65
L7A: -0.0889
K6D: 0.0386
R5I: 0.14
D11N: 3.14
F9R: -0.11

A few entries again (series 3):
Cc1ccc(Nc2nccc(N(C)c3ccc4c(C)n(C)nc4c3)n2)cc1S(N)(=O)=O: 73.4%
CO[C@H]1C[C@@H]2CC[C@@H](C)[C@@](O)(O2)C(=O)C(=O)N2CCCC[C@H]2C(=O)O[C@H]([C@H](C)C[C@@H]2CC[C@@H](O)[C@H](OC)C2)CC(=O)[C@H](C)/C=C(\C)[C@@H](O)[C@@H](OC)C(=O)[C@H](C)C[C@H](C)/C=C/C=C/C=C/1C: 117%
Cn1c2ccccc2c2c3c(c4c5ccccc5n(CCC#N)c4c21)CNC3=O: 69%
